Measurements from different studies.
A part holds a random share of what one study measured. ± marks the error that the study gave.
UniProt Q92630, sequence (whole entry, looked up): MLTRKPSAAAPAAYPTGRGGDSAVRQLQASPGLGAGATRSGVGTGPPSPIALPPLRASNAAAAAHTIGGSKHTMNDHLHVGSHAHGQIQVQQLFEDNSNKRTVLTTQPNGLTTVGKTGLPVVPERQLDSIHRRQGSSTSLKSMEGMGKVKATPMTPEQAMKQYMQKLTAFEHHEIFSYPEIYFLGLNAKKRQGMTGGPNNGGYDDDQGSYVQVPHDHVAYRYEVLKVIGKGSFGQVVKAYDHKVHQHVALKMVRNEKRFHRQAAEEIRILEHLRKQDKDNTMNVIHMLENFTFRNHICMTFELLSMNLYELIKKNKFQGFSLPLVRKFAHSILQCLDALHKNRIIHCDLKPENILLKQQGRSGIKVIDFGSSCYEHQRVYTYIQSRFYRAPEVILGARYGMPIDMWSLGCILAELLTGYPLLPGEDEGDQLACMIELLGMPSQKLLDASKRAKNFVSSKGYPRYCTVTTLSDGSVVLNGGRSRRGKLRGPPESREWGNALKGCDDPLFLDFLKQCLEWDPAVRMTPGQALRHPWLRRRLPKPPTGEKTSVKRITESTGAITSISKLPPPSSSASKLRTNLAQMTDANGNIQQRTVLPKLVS

Block 1
Organism: Candida albicans
Method: broth microdilution
Strain: ATCC 10231
Compound	MFC/MIC ratio
COc1ccc(N=Nc2c(N)nn3c(-c4ccc(C)cc4)cc(-c4ccc(OCc5ccccc5)cc4)nc23)cc1	2
Cc1ccc(N=Nc2c(N)nn3c(-c4ccc(C)cc4)cc(-c4ccc(OCc5ccccc5)cc4)nc23)cc1	3.9
Cc1ccc(N=Nc2c(N)nn3c(-c4ccc(Cl)cc4Cl)cc(-c4ccc(OCc5ccccc5)cc4)nc23)cc1	1.9
Nc1nn2c(-c3ccc(Cl)cc3Cl)cc(-c3ccc(OCc4ccccc4)cc3)nc2c1N=Nc1ccc(F)cc1	2
COc1ccc(N=Nc2c(N)nn3c(-c4ccco4)cc(-c4ccc(OCc5ccccc5)cc4)nc23)cc1	4

Further values, each from its own experiment
AKR1B1: Aldo-keto reductase family 1 member B1 (AKR1B1, Homo sapiens, UniProt P15121)
Structure (SMILES)	target	assay	setting	quantity	result
COc1cc(/C=N/NC(=S)NN=Cc2ccc([N+](=O)[O-])o2)ccc1Oc1ccnc2cc(Cl)ccc12	AKR1B1	Lineweaver-Burk kinetics	1.65 µg (IC20)	Km	4.02 mM
CCc1ccc(NC(=O)Cn2cc(COc3ccc(-c4nc5ccccc5c(=O)n4Nc4ccc([N+](=O)[O-])cc4[N+](=O)[O-])cc3OC)nn2)cc1	mushroom tyrosinase	inhibitor, colorimetric	together with: L-DOPA substrate	IC50	22.9 ± 5.65 µM
O=C(Nc1cc(-c2ccc(Cl)cc2)[nH]n1)C1CCCCC1	Dual specificity tyrosine-phosphorylation-regulated kinase 2 (DYRK2, Homo sapiens, UniProt Q92630)	enzyme activity, Dundee kinase panel	10 µM	remaining activity	84%
COc1cc(/C=N/NC(=S)N/N=C/c2ccc(C)cc2)ccc1Oc1ccnc2cc(Cl)ccc12	AKR1B1	enzyme activity, inhibitor, refers to: NADPH	together with: DL-glyceraldehyde substrate	IC50	6.45 ± 0.17 µg/mL
COc1cc(-c2nc3ccccc3c(=O)n2Nc2ccc([N+](=O)[O-])cc2[N+](=O)[O-])ccc1OCc1cn(CC(=O)Nc2cccc(C)c2C)nn1	mushroom tyrosinase	inhibitor, colorimetric	together with: L-DOPA substrate	IC50	34.3 ± 2.79 µM
COc1cc(/C=N/NC(=S)NN=Cc2scnc2C)ccc1Oc1ccnc2cc(Cl)ccc12	human lysosomal acid alpha-glucosidase	inhibitor	together with: pNPG substrate	IC50	9.12 ± 0.28 µg/mL
COc1ccc(NC(=O)Cn2cc(COc3ccc(-c4nc5ccccc5c(=O)n4Nc4ccc([N+](=O)[O-])cc4[N+](=O)[O-])cc3OC)nn2)c(OC)c1	mushroom tyrosinase	inhibitor, colorimetric	together with: L-DOPA substrate	IC50	17 ± 1.66 µM

Excerpt of the above (block 1):
Compound	MFC/MIC ratio
COc1ccc(N=Nc2c(N)nn3c(-c4ccc(C)cc4)cc(-c4ccc(OCc5ccccc5)cc4)nc23)cc1	2
